# Published values pooled from the literature.
# Parts stem from different laboratories: compare values within a part only.

# Block 1
# Target: Hepatocyte nuclear factor 3-beta, forkhead domain (FOXA2, Homo sapiens, UniProt Q9Y261, residues 142-269)
# Technique: protein-binding microarray
# Molecule type: double-stranded DNA, one strand shown
# Matrix: in vitro
# Tested at: not given
# Notes: k-mer, scored over probes, only values ≥0.25
# Direction: higher = stronger binding
# Residues (chain): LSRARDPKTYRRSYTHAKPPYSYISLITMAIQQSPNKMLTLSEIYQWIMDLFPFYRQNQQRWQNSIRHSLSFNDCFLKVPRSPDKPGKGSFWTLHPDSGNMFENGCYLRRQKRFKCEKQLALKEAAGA
Strand,E-score
TATATTGA,0.348
GAATATTA,0.254
AGAATATA,0.281
CGCAAACA,0.318
CTTATATC,0.286
GATATTAC,0.293
CGTAATAC,0.266
AATACATG,0.279
AATAAGAC,0.362
ACTGTAGA,0.264
CTTATATA,0.332
ATCATAAC,0.316
ATACACTA,0.327
ACAACAAC,0.28
ATGTCTAA,0.31
ATTTACAC,0.295
ATTAATGG,0.303
AACAGTAT,0.347
TAAGTATA,0.295
GTGTAATA,0.259
ATCATACA,0.388

# Block 2
# Target: PABPC1L2, full length, GST fusion (mouse, UniProt A0ABA7IW68)
# Technique: RNAcompete
# Molecule type: RNA
# Matrix: in vitro
# Tested at: 20 nM
# Notes: 7-mer, probes averaged, single round
# Relative to: mean of 7-mers
# Direction: higher = stronger binding
# Construct (chain): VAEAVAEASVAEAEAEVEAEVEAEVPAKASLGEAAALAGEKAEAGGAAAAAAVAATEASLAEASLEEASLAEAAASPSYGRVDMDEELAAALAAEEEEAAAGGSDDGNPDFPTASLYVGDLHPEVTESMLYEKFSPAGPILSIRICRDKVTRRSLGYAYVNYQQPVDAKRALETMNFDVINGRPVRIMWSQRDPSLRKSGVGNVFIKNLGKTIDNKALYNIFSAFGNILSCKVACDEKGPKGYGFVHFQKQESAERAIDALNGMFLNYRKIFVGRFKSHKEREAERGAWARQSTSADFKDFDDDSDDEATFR
Strand,7-mer Z-score
UGUAUCA,-0.195
CCUGCCC,-0.423
GUGCUUC,-0.267
CGUUAGU,-0.409
CGAGUCC,-0.407
UCUUGGG,-0.0373
UGUUGAA,-0.0953
AUACUGG,0.00798
AUAUUGC,-0.151
AAGAGAC,0.367
AAACCAG,0.49
AGACUGC,-0.162
UUCACCC,-0.438
GUCCACC,-0.376
UGCAGGA,0.2
AUGCGAA,0.227
UGCCUGC,-0.257
GCGUGUU,-0.351
GGCUCUC,-0.148

# Block 3
# Target: RNA binding protein fox-1 homolog 2, RRM domain, GST-SBP tag (RBFOX2, Homo sapiens, UniProt O43251-10, residues 100-194)
# Technique: RNA Bind-n-Seq
# Molecule type: RNA
# Matrix: in vitro
# Tested at: 365 nM
# Notes: natural RNA segment, single round, ends assumed
# Relative to: no-protein control
# Direction: higher = stronger binding
# All sequences stand within: GGGAGUUCUACAGUCCGACGAUC … UGGAAUUCUCGGGUGCCAA
# Construct (chain): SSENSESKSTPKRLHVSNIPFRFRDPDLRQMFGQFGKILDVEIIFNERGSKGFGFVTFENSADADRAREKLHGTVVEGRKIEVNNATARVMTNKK
Strand,RBNS enrichment (R)
AUAUACAUAAUGUGCUUAACCACUGCCUUUUAAAACUUUAAAUUAAAUAAAACAUUGGGGUUGAUUCAAUUUGGCCAUCUGUGUGUGUUUCUUUAUAGAUACAUGGGCUA,0.417
UGGGAUCUUUGGGUGAUCAAGGGUGUGGUUAGUGGAGGCUCUGUGCUGCACGUAUGCAGUAUCCUAUCUCUUUCUACAUCAGAUCAAAACACUAAGUUGGUGUACUGCCU,2.26
UUCACCUCUAUCCAAAGAACUUGAUUUGCAUGGAUUUUGGAUAAAUCAUUUCAGUAUCAUCUCCAUCAUAUGCCUGACCCCUUGCUCCCUUCAAUGCUAGAAAAUCGAGU,2.92
GAGUAUUUUAGUGGGAAGUUGCCAACUUUUUAAGAAUGAGCAGUUGACAAGGGCCAGAGCCUGUCCCUUGUCAGCAGUAGGACAUUUCCAGCUCUUAGGAAUAGAAAGGA,0.54
GAGGACAGGGCAUUGUCCUCAGUCAGAUACAACAGCAUUUGGGGCCAUGGUACCUGCACACCUAAAACACUAGGCCACGCAUCUGAUCUGUAGUCACAUGACUAAGCCAA,1.19
AUGACUUUUUCAAAAAUAUACAGGGGCAGCUGCCAAAUUGAUGUAUUAUAUAUUGUGGUUUCUGUUUCUUGAAAGAAUUUUUUUCGUUAUUUUUACAUCUAACAAAGUAA,0.79
UAACAGGUACCACUUCUGAUCACCCUGUACAUACAUGAGCCGAAAGGCACAAUCACUGUUUCAGAUUUAAAAUUAUUAGUGUGUUUGUUUGGUCCAGAAACUGAGACAAU,0.232
GCUAUGUUCAAUAUGGCAGAGCCAAAAGCCAAGUUCUAAGGCAGCCGAAAUAAAAAGCUUUGAAACCAUAGCCUUGCCUUCUGGUUUGAUUACAGGGAGCCUUGUCUGGU,0.411
AUGGAACCAACAAGUUGAGUGCAUCUCUGUUGGGUGUUUUGUGUUGAGACUGGCUGAAGUGAAGAAUCUUUGACUGACCAUGUUGUGAUGUGUCGACAGACUCAAGGACA,0.407
UGCUGCCUCUAGACCUCGCCCACGUGGACAGACGCUUCCUGUCAUGGCUCUGCCUAGAGAUGUUCCUUGGGGUCUGUGAGGUUCUGUCAACUGCUAGUGCUAACGCUGUC,0.62
AGGUUGAGAGUUUUGGAAUUGAUUCCAUGCUAAAUGUCAGUUACCAGUUUGGAUUGAUGAAAGUGAUUUUUCUGCUUUACCUUUUUCCUGUCAGAAAGGUUUUCCUCUGU,0.471
CCCUGCCCCUUGCCCAGGGCCAGUGCCAUGGGGAAGGGGCUUGUGGGGAGGGGACCCAUGAAUCCUGACCACUCUUGAACCCAGAAGGAGGACUUUGGGCCAAUUUCGGA,0.123

# Block 4
# Target: Interferon regulatory factor 7, full length, phosphomimetic (IRF7, Homo sapiens, UniProt Q92985, residues 1-503, S101K/S471D/S472D/S475D/S476D/S477D/S483D/S484D/S487D)
# UniProt Q92985, sequence (whole entry, unmodified, looked up): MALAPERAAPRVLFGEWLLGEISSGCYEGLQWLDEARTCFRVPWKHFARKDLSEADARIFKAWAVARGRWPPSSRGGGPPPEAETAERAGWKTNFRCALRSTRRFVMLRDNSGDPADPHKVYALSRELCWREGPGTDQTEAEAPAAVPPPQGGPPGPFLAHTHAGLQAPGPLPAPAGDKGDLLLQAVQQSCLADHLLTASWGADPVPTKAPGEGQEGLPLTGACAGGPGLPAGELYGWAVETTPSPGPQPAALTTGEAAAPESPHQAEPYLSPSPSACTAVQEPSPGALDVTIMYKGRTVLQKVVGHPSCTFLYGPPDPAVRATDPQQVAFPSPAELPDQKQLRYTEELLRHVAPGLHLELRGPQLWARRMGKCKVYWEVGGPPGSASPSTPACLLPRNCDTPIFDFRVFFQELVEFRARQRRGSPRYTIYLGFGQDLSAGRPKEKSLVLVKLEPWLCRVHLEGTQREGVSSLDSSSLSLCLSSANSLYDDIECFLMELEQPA
# Technique: protein-binding microarray
# Molecule type: double-stranded DNA, one strand shown
# Matrix: in vitro
# Tested at: 250 nM
# Notes: 60-bp whole probe
# Together with: salmon DNA 0.4 mg/ml
# Relative to: random background probes
# Direction: higher = stronger binding
# All sequences stand within: GCCTAGCAC … GTCTTGATTCGCTTGACGCTGCTG
Strand,log fluorescence
TTAGGTTTCCTGCTGCTTTAGTGCTAG,0.708 z-score
GACGTTTTCCTACTGCTGACGTGCTAG,1.62 z-score
GCCGGACTGGACTTTCGGGACGTGCTA,-0.574 z-score
GACGGTACCGGGTTTCGGGACGTGCTA,2.52 z-score
GACGATTGCGGGTATCGAGACGTGCTA,-0.453 z-score
GACGGACGGGGGTTTCGGGACGTGCTA,2.74 z-score
GACGGTCTCGGTTTCGGGAAGTGCTAG,7.28 z-score
TCCTCTTTCACTGCTCCCCAAGTGCTA,1.41 z-score
GACGGTTTCGGGTATCGGGAGGTGCTA,7.04 z-score
TTAGGACTGTGTTTCGGTTAGTGCTAG,3.72 z-score
GACGGTTTCCTTTCCCTTACGTGCTAG,4.71 z-score
GACGATTCCAGTTTCAAGACGTGCTAG,1.14 z-score
ATGCCCCCCAAGAGGGGCGGGTGCTAG,0.619 z-score
TCTCTTTCCTTACTTCCCAATGTGCTA,2.6 z-score
GGCGAACTGGGGTATCGAGACGTGCTA,-0.965 z-score
TTGGATATCGGGTTTCGATTAGTGCTA,6.48 z-score
TTAGCTCTCAGACTGGATTAGTGCTAG,-0.19 z-score
AACGGACTGGGTCTCGGGACGTGCTAG,-0.0292 z-score
GACGGTATCTGTTTCGGGACGTGCTAG,1.7 z-score
TTAGGTCTTGGTCTCGGTTAGTGCTAG,1.7 z-score
TCATTTTTTTTTTTTACACTGTGCTAG,1.2 z-score
TTAGGTTTCGGGTTTAGGTTAGTGCTA,11 z-score
TTAGGGCTGCTTCTCCTTTAGTGCTAG,-0.561 z-score
TTACGTTTCCTTATCCTTTAGTGCTAG,2.32 z-score
TTGTGTCTGGGCATTTTTTTTGTGCTA,-0.999 z-score

# Block 5
# Target: Hepatocyte nuclear factor 3-alpha (Foxa1, Mus musculus, UniProt P35582, residues 1-468, full length assumed)
# Technique: EMSA with sequencing
# Molecule type: double-stranded DNA, one strand shown
# Matrix: in vitro
# Tested at: 10 and 20 nM
# Notes: whole designed probe, mean of two concentrations, ends assumed
# Relative to: negative control set to 0
# Direction: higher = stronger binding
# All sequences stand within: GTGAGCGGTGCCCATTGATGGGGAAC … TTTCACTGGGATCGTGGGGAC
# Target sequence (chain): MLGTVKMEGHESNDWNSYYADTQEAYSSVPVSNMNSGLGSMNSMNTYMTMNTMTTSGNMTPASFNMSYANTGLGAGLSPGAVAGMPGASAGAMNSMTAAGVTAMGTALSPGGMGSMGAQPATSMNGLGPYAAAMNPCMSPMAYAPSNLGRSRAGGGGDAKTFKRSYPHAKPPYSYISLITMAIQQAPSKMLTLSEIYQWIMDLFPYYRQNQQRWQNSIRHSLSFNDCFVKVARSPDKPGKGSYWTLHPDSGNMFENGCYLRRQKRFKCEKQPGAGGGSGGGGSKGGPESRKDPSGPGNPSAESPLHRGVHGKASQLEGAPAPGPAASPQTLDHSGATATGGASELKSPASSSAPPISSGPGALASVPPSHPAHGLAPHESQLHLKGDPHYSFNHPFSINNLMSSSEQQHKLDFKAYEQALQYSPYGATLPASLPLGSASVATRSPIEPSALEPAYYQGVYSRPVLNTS
Strand,normalised bound fraction
GGACACAGCCAGAGGCCATGAGTGCTCAGGAGTGCCATAAACTGTGATTTTGAGACTGCTGGGTGTGTCATAAGGCCAGGCTAAATAGCTTGTTGTTTGCCTTTTTATATTTGAGGCCTATAAAAAAATAGTGAGAAAATAGCAAGATGCCCAGGAGACAGGTGATCTGATTCAGCCAGGGGGTGGGAGGTGG,0.0704 ratio
ATCTTCCCCCTCTTCCTTGCCCCACCAGCTCACCTTCCCGGGTTGTTTACTTTGAGGAAAATAAATAAAGCCGGCATTCGTTAACCCTCTTCTGGCGCAAACTGCTGTTTGCTCTGGATGAATCATGGTCCTTTGGCGACGCCAGGCTCCGGGAGAGCAAAGCACCGTGTCAGGGCCATGATCCGGGGTGGCC,0.363 ratio
TGCTGGACCCCGGGCATAGGGAGCCCTTGCTGCTTCTCCACCCACCAGTGCTGAGCTCCGGGGGTGTTTGCCTTGCAGGTCCAAGCTGTGAATGTAAACACTGCAATTCCTCTGAAAACTGGCTGGAACCTCCTCCAGGGAGGAAGGGTTGCTCATGGGCAGGGCAGGCTCCCAAACATCATACACAGCAACC,0.299 ratio
AATTCATTACTAAGCATAAGATAGTATATGGCTATGGTGAAAGAAATAGTGACTTATGAAATAAATTGCTTTACTAAACAACTTTCTTTTTATGTTTACTTAGATTGCAAATTAGGCCTGGTACTTTCTTTGAGGACCATGATGATAAGAAAATATTTGTATCAATTATCTCCATGCTGTAGCCTAGATATAA,0.455 ratio
GTAGCCTTTTTCAGATTTCATCAAATATGGTGTTAGGGGGCCCTCATTTGTCCACAAAAAATATGGTGACAAGGGATGATGACGTGAGTCAGAGTAATCTCCATTTACTCACTTTGCGTCACTGTTTATTAGAAGGGCTGTTCGGACTTTCTAGTTGCCAAACTGGACCGTGTATGCTCTCTGAAGAGCGGGC,-0.00352 ratio
ATCTTCCCCCTCTTCCTTGCCCCACCAGCTCACCTTCCCGGGTTATTTGCACAAAGGAAAATAAATAAAGCCGGCATTCGTTAACCCTCTTCTGGCGCAAACTGCTGTTTGCTCTGGATGAATCATGGTCCTTTGGCGACGCCAGGCTCCGGGAGAGCAAAGCACCGTGTCAGGGCCATGATCCGGGCTCGCC,0.355 ratio
TCCACAGCTACCCTTGGTTCCTTCAATCCCTCTTCTCCTAAAACAAACAAAAGCATGTTCCTTTGTCATTAAAAAAAAAAAAAAAAAGCAAAGTAAACATGCATCACACAGGCCAGCAGCCAGAAGTTTCCAATGCTCAGTGTCTGCTGCATTCTACGCCTCTATCACACAAAACTCACCACCCTCTAGTTCT,0.501 ratio
AGCAGGAAACTCTCCCACCCCTTTTTCCTCTCTCTTTCAAAGCAATTTGTTTCAGTATTTTAGCATACAAAAAAATAGAACCATTTTCTTCAATGTAATCTGAGATCTGCAGGGAAATAAGAGCGTTAAAAAAGAATTAGCATTTGTTTGGTGGTGAAGCTGCTTTTGTTTGTATCAGAAAGCTCTGCATGTT,-0.0136 ratio
